Experimental data collected from several papers.
Protocols differ between the studies behind these lines. ± gives the spread as reported.

CS(=O)(=O)n1cc2c(n1)CN([C@H]1CO[C@H](c3cc(F)ccc3F)[C@@H](N)C1)C2 — AUC(0-last) (healthy male human, plasma; oral, 400 mg, fasted single dose): 334 µM·h
CCCC[C@H](NC(C)=O)C(=O)N[C@H]1CC(=O)NCCCC[C@@H](C(=O)O)NC(=O)[C@H](Cc2c[nH]c3ccccc23)NC(=O)[C@H](CCCN=C(N)N)NC(=O)[C@@H](Cc2ccccc2)NC(=O)[C@H](Cc2cnc[nH]2)NC1=O — AUC(0-last) (LC-MS/MS, non-compartmental; human, plasma; subcutaneous, 2.5 mg twice daily): 475 ± 75.2 ng·h/mL
CC#CC(=O)NCCCC(=O)c1nc(-c2ccc(C(=O)Nc3ccccn3)cc2)c2c(N)nccn12 — AUC(0-last) (human, healthy control, plasma; oral, 50 mg acalabrutinib, single, geometric mean): 700 ng·h/mL
CNC(=O)c1ccc(-c2cnc3ncc(Cc4ccc5ncccc5c4)n3n2)cc1F — AUC(0-last) (human, severe hepatic impairment (Child-Pugh C), plasma; oral, 200 mg single dose): 8510 ng·h/mL
CO[C@H]1C[C@@H]2CC[C@@H](C)[C@@](O)(O2)C(=O)C(=O)N2CCCC[C@H]2C(=O)O[C@H]([C@H](C)C[C@@H]2CC[C@@H](O)[C@H](OC)C2)CC(=O)[C@H](C)/C=C(\C)[C@@H](O)[C@@H](OC)C(=O)[C@H](C)C[C@H](C)/C=C/C=C/C=C/1C — AUC(0-last) (healthy humans, whole blood; oral, 2 mg single dose, added: isavuconazole 200 mg once daily after loading): 303 ng·h/mL
O=c1[nH]c(=O)c(Cc2cccc(C(F)(F)F)c2)c([C@H]2CC[C@H](c3ccccc3)CC2)[nH]1 — AUC(0-last) (human, male, plasma; oral, 150 mg 14C solution, geometric mean): 4320 ng·h/mL
CC(C)(C)OC[C@@H]1C(=O)NCCN1C(=O)C[C@H](N)Cc1cc(F)c(F)cc1F — AUC(0-last) (human, male, plasma; oral, single dose, fixed-dose combination with metformin, fasted): 164 ± 28.7 ng·h/mL
CCOCCn1c(C2CCN(CCc3ccc(C(C)(C)C(=O)O)cc3)CC2)nc2ccccc21 — AUC(0-last) (human, severe renal insufficiency, plasma; oral, 20 mg): 1470 ng·h/mL
C[C@@H](c1nc(-c2ccc(C#N)cc2)cs1)[C@](O)(Cn1cncn1)c1cc(F)ccc1F — AUC(0-last) (human, both sexes, plasma; oral, 200 mg single dose, added: ketoconazole 200 mg BID): 238000 ng·h/mL
COc1c(N2C[C@@H]3CCCN[C@@H]3C2)c(F)cc2c(=O)c(C(=O)O)cn(C3CC3)c12 — AUC(0-last) (human; 400 mg single dose, median, alone): 22600 ng·h/mL
